Assay results gathered from unrelated publications.
Compare with care: the assays were run in different laboratories. Numbers after ± are the reported error.

With CC(C)C[C@H](NC(=O)CN1CCN(CC(=O)O)CCN(CC(=O)O)CC1)C(=O)N[C@@H](CC(C)C)C(=O)N[C@@H](CC(C)C)C(=O)N[C@@H](CC(C)C)C(=O)N[C@@H](CCCNC(=N)N)C(=O)N[C@H](C(=O)N[C@@H](CCCCN)C(=O)N[C@@H](CCCNC(=N)N)C(N)=O)C(C)C [copper-64 labelled] the tissue uptake was 2.8 ± 0.06 %ID/g (CD1 mouse, male, spleen; intravenous, 15 min).
With CCCC[C@H](NC(=O)CCCCCCCNC(=O)CN1CCN(CC(=O)O)CCN(CC(=O)O)CC1)C(=O)N[C@H]1CC(=O)NCCCC[C@@H](C(N)=O)NC(=O)[C@H](Cc2c[nH]c3ccccc23)NC(=O)[C@H](CCCNC(=N)N)NC(=O)[C@@H](Cc2ccccc2)NC(=O)[C@H](Cc2c[nH]cn2)NC1=O [copper-64 labelled] the tissue uptake was 3.29 ± 0.61 %ID/g (C57 mice, kidney; intravenous, 0.37 MBq, 2 h).
N=C(N)NCCC[C@@H]1NC(=O)[C@H](CCCCNC(=O)CC[C@H](NC(=O)CC[C@H](NC(=O)CN2CCN(CC(=O)O)CCN(CC(=O)O)CCN(CC(=O)O)CC2)C(=O)N[C@@H](CCC(=O)NCCCC[C@@H]2NC(=O)[C@@H](Cc3ccccc3)NC(=O)[C@H](CC(=O)O)NC(=O)CNC(=O)[C@H](CCCNC(=N)N)NC2=O)C(=O)NCCCC[C@@H]2NC(=O)[C@@H](Cc3ccccc3)NC(=O)[C@H](CC(=O)O)NC(=O)CNC(=O)[C@H](CCCNC(=N)N)NC2=O)C(=O)NCCCC[C@@H]2NC(=O)[C@@H](Cc3ccccc3)NC(=O)[C@H](CC(=O)O)NC(=O)CNC(=O)[C@H](CCCNC(=N)N)NC2=O)NC(=O)[C@@H](Cc2ccccc2)NC(=O)[C@H](CC(=O)O)NC(=O)CNC1=O [indium-111 labelled] has a tissue uptake of 4.29 ± 1.26 %ID/g (female athymic nu/nu mice, lungs; intravenous, 0.5 h).
The tissue uptake of N=C(N)NCCC[C@@H]1NC(=O)[C@H](CCCCNC(=O)CCOCCOCCOCCOCCNC(=O)CC[C@H](NC(=O)CCOCCOCCOCCOCCNC(=O)CN2CCN(CC(=O)O)CCN(CC(=O)O)CCN(CC(=O)O)CC2)C(=O)NCCOCCOCCOCCOCCC(=O)NCCCC[C@@H]2NC(=O)[C@@H](Cc3ccccc3)NC(=O)[C@H](CC(=O)O)NC(=O)CNC(=O)[C@H](CCCNC(=N)N)NC2=O)NC(=O)[C@@H](Cc2ccccc2)NC(=O)[C@H](CC(=O)O)NC(=O)CNC1=O [copper-64 labelled] is reported as 0.87 ± 0.22 %ID/g (athymic nude mouse, female, whole blood; iv, 0.5 h).
The tissue uptake of N=C(N)NCCC[C@@H]1NC(=O)[C@H](CCCCNC(=O)CNC(=O)CNC(=O)CNC(=O)CC[C@H](NC(=O)CNC(=O)CNC(=O)CNC(=O)CC[C@H](NC(=O)CN2CCN(CC(=O)O)CCN(CC(=O)O)CCN(CC(=O)O)CC2)C(=O)NCC(=O)NCC(=O)NCC(=O)N[C@@H](CCC(=O)NCC(=O)NCC(=O)NCC(=O)NCCCC[C@@H]2NC(=O)[C@@H](Cc3ccccc3)NC(=O)[C@H](CC(=O)O)NC(=O)CNC(=O)[C@H](CCCNC(=N)N)NC2=O)C(=O)NCC(=O)NCC(=O)NCC(=O)NCCCC[C@@H]2NC(=O)[C@@H](Cc3ccccc3)NC(=O)[C@H](CC(=O)O)NC(=O)CNC(=O)[C@H](CCCNC(=N)N)NC2=O)C(=O)NCC(=O)NCC(=O)NCC(=O)NCCCC[C@@H]2NC(=O)[C@@H](Cc3ccccc3)NC(=O)[C@H](CC(=O)O)NC(=O)CNC(=O)[C@H](CCCNC(=N)N)NC2=O)NC(=O)[C@@H](Cc2ccccc2)NC(=O)[C@H](CC(=O)O)NC(=O)CNC1=O [indium-111 labelled] is reported as 2.01 ± 0.45 %ID/g (female athymic nu/nu mice, liver; intravenous, 72 h).
For CC(C)C[C@H](NC(=O)[C@H](Cc1ccc(O)cc1)NC(=O)[C@@H](CCCNC(=N)N)NC(=O)[C@@H](CO)NC(=O)[C@H](Cc1ccccc1)NC(=O)[C@H](CC1CCCCC1)NC(=O)[C@H](CC(=O)O)NC(=O)CN1CCCN2CCN(CCCN(CC(=O)O)CC2)CC1)C(=O)N[C@@H](Cc1c[nH]c2ccccc12)C(=O)N[C@@H](CO)C(=O)O [copper-64 labelled], the tissue uptake was 2.9 ± 0.4 %ID/g (female NMRI nude mice, lung; 22 h p.i.).
With CCCC[C@H](NC(=O)CNC(=O)CNC(=O)CN1CCN(CC(=O)O)CCN(CC(=O)O)CCN(CC(=O)O)CC1)C(=O)N[C@H]1CC(=O)NCCCC[C@@H](C(N)=O)NC(=O)[C@H](Cc2c[nH]c3ccccc23)NC(=O)[C@H](CCCNC(=N)N)NC(=O)[C@@H](Cc2ccccc2)NC(=O)[C@H](Cc2c[nH]cn2)NC1=O [lutetium-177 labelled] the tissue uptake was 1.04 ± 0.51 %ID (C57 mouse, female, intestines; intravenous, 0.037 MBq, 4 h).
The tissue uptake of CSCC[C@H](NC(=O)[C@H](CC(C)C)NC(=O)[C@H](Cc1c[nH]cn1)NC(=O)CNC(=O)[C@@H](NC(=O)[C@H](C)NC(=O)[C@H](Cc1c[nH]c2ccccc12)NC(=O)[C@H](CCC(N)=O)NC(=O)CCOCCOCCOCCOCCNC(=O)CN1CCN(CC(=O)O)CCN(CC(=O)O)CCN(CC(=O)O)CC1)C(C)C)C(N)=O [indium-111 labelled] is reported as 1.2 ± 0.2 %ID/g (Swiss nu/nu mouse, male, PC-3 tumour xenograft, tumour; intravenous, 10 pmol, 24 h).
The tissue uptake of CCCC[C@H](NC(=O)COCCOCCNC(=O)CN1CCN(CC(=O)O)CCN(CC(=O)O)CC1)C(=O)N[C@H]1CC(=O)NCCCC[C@@H](C(N)=O)NC(=O)[C@H](Cc2c[nH]c3ccccc23)NC(=O)[C@H](CCCNC(=N)N)NC(=O)[C@@H](Cc2ccccc2)NC(=O)[C@H](Cc2c[nH]cn2)NC1=O [copper-64 labelled] is reported as 0.03 ± 0.05 %ID/g (C57 mice, muscle; intravenous, 0.37 MBq, 4 h).
For N=C(N)NCCC[C@@H]1NC(=O)[C@H](CCCCNC(=O)CNC(=O)CNC(=O)CNC(=O)CC[C@H](NC(=O)CNC(=O)CNC(=O)CNC(=O)CN2CCN(CC(=O)O)CCN(CC(=O)O)CCN(CC(=O)O)CC2)C(=O)NCC(=O)NCC(=O)NCC(=O)NCCCC[C@@H]2NC(=O)[C@@H](Cc3ccccc3)NC(=O)[C@H](CC(=O)O)NC(=O)CNC(=O)[C@H](CCCNC(=N)N)NC2=O)NC(=O)[C@@H](Cc2ccccc2)NC(=O)[C@H](CC(=O)O)NC(=O)CNC1=O [indium-111 labelled], the tissue uptake was 10.2 ± 3.61 %ID/g (female athymic nu/nu mice, U87MG tumour; intravenous, 111 kBq, 0.5 h).
Cc1cc(O)cc(C)c1C[C@H](NC(=O)[C@@H]1CCCN1C(=O)[C@H](CCCNC(=N)N)NC(=O)[C@H](CCCNC(=N)N)N(C)C(=O)[C@@H]1CCCN1C(=O)[C@H](CCCCN)NC(=O)[C@@H](CC(C)C)NC(=O)[C@@H](CC(C)C)NC(=O)[C@@H](CC(C)C)NC(=O)[C@@H](CC(C)C)NC(=O)CN1CCN(CC(=O)O)CCN(CC(=O)O)CCN(CC(=O)O)CC1)C(=O)N[C@H](C(=O)N[C@@H](CC(C)C)C(=O)O)C(C)(C)C [lutetium-177 labelled] has a tissue uptake of 6.65 ± 0.71 %ID/g (CF-1 mouse, liver; iv, 370 kBq, 1 h).

Excerpt of the above:
N=C(N)NCCC[C@@H]1NC(=O)[C@H](CCCCNC(=O)CC[C@H](NC(=O)CC[C@H](NC(=O)CN2CCN(CC(=O)O)CCN(CC(=O)O)CCN(CC(=O)O)CC2)C(=O)N[C@@H](CCC(=O)NCCCC[C@@H]2NC(=O)[C@@H](Cc3ccccc3)NC(=O)[C@H](CC(=O)O)NC(=O)CNC(=O)[C@H](CCCNC(=N)N)NC2=O)C(=O)NCCCC[C@@H]2NC(=O)[C@@H](Cc3ccccc3)NC(=O)[C@H](CC(=O)O)NC(=O)CNC(=O)[C@H](CCCNC(=N)N)NC2=O)C(=O)NCCCC[C@@H]2NC(=O)[C@@H](Cc3ccccc3)NC(=O)[C@H](CC(=O)O)NC(=O)CNC(=O)[C@H](CCCNC(=N)N)NC2=O)NC(=O)[C@@H](Cc2ccccc2)NC(=O)[C@H](CC(=O)O)NC(=O)CNC1=O [indium-111 labelled] has a tissue uptake of 4.29 ± 1.26 %ID/g (female athymic nu/nu mice, lungs; intravenous, 0.5 h).
